Experimental data of several laboratories.
Parts stem from different laboratories: compare values within a part only. Substitutions count along the parent as printed.

Series 1 — technique: RNA Bind-n-Seq; molecule type: RNA; medium: in vitro; concentration: 200 nM; setting: whole 134-nt RNA, ends assumed; added: 150 mM KCl; reference: input library; direction: higher = stronger binding; quantity: log2 enrichment
Target: Fragile X messenger ribonucleoprotein 1, C-terminal low-complexity region (Fmr1, Mus musculus, UniProt P35922)
Sequence = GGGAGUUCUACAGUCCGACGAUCUAACUUUAGAGGAGGAUCUGAUGGAUAUGGCAGUGUACGUGGAUUUGGGGAUGGCUAUAAUGGGUAUGGAGGAGGACCUGGAGGUGGCAAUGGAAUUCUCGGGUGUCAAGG; result = 0.235
Sequence = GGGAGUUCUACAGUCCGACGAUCAGUCCUGUGCUACACAUCGUAUGUACCGAAUCGGGGUGGGGAGGGGUUUUUUUGGGGAAAGUAUUAUGUUACGCCGUUCGGAUCUGCACUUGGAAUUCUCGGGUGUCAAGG; result = 0.943
Sequence = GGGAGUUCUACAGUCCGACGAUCUGGCCCUGGUGGCCUGCGGGGAGGAAGAGGUGGCCUCAUGGAUCGUGGUGGUCCCGGUGGAAUGUUCAGAGGUGGCCGUGGUGGAGACAGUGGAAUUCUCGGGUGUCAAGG; result = 0.0772
Sequence = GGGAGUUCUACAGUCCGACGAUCUUACUAGAAAAGGCAGAAGCCCGUGAACGUGAAAGAGAAAAAGAAGAGGCUCGGAAGAUGAAACGAAAAGAAUCUGCAUUUAAGAGUAUGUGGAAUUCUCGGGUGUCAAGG; result = -1.47
Sequence = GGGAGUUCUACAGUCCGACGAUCUCAAGUCCUGUGCUACACAUCGUAUGUACCGAAUCGGGGAGGGGUGGGGUGGGGAAAGUAUUAUGUUACGCCGUUCGGAUCUGCACUUCCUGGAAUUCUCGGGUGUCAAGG; result = 1.48
Sequence = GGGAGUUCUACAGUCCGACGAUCAGUCCUGUGCUACACAUCGUAUGUACCGAAUCGGGAAAAGGGGAAAAGGAAAAGGGGAAAGUAUUAUGUUACGCCGUUCGGAUCUGCACUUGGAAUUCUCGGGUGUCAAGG; result = 0.19
Sequence = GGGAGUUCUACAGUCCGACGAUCUGGCCCUGGUGGCAUGCGGGGAGGAAGAGGUGGCCUCAUGGAUCGUGGUGGUCCAGGUGGAAUGUUCAGAGGUGGCCGUGGUGGAGACAGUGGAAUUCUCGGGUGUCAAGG; result = 0.0866
Sequence = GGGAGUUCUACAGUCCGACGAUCUGGGAGGUGGAUUUUGUUUAUUUUUUUAGCUCAUUUCCAGGGGUGGGGAUUUUUUUUUAAUAUGUGUCAUGAAUAAAGUUGUUUUUGAAAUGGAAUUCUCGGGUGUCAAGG; result = 0.515
Sequence = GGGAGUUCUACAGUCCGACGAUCCUGUGCUACACAUCGUAUGUACCGAAUCGGGCCCCCCCGGGGCCCCCCCGGCCCCCCCGGGGAAAGUAUUAUGUUACGCCGUUCGGAUCUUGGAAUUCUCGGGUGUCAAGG; result = -1.3
Sequence = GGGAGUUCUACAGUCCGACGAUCCCUCAAGUCCUGUGCUACACAUCGUAUGUACCGAAUCGGAGGGGAGGGAGGGAAAGUAUUAUGUUACGCCGUUCGGAUCUGCACUUCCAGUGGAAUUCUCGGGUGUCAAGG; result = 1.41
Sequence = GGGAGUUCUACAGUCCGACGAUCACCAUGCAGGUGGGCAUCUUUGGGAAGUGGGGCAAGGGGGGGAUAGGGAGGGGGGUAACACUUUGGGAACAGGUGGUCCCAGGUCUUUUCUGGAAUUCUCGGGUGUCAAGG; result = 0.662
Sequence = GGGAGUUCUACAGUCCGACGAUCCACAGACAACACGCACCCACACAGACACAGAGGGAAGGGGUUGGGAUGGGGACAGGGUGCACAGCAGGGCGGGGAAGGACCCCAGCCCCUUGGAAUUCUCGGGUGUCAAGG; result = 1.26
Sequence = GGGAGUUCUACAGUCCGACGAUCACCAUGCAGGUGGGCAUCUUUGGGAAGUGGGGCAAGGGGGGGAUACGGAGGGGGGUAACACUUUGGGAACAGGUGGUCCCAGGUCGUUUCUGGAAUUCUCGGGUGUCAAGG; result = 0.601
Sequence = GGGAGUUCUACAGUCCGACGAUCUUUCUAGGGAAGGUGCUUCUGGAAAAGUUGCUGAGGUCUUGUCCUAAGGUGAAUUCAGUAUAUGUUUUGGUGAGGCAGAAAGCUGGACAGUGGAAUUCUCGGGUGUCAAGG; result = -1.8

Series 2 — target: CCNB1, cyclin fold, Cln2 fusion (human); technique: yeast growth competition, sequencing; medium: yeast; setting: weak parent motif; reference: not given; direction: higher = stronger binding; quantity: normalised enrichment score
Starting sequence: CDC25A docking peptide (human); PPHRRRLLFACSP
Variant = R5Y; result = -0.0136
Variant = L7W; result = 0.372
Variant = R5Q; result = 0.865
Variant = H3E; result = 0.0469
Variant = P13L; result = 0.776
Variant = P13H; result = 0.911
Variant = P13A; result = 0.668
Variant = P13C; result = 0.75
Variant = S12W; result = 0.934
Variant = H3A; result = 0.119
Variant = P13V; result = 0.107
Variant = L7M; result = 0.388
Variant = R6G; result = 0.105
Variant = C11K; result = -0.0924
Variant = P1T; result = 0.356

Series 3 — technique: RNA Bind-n-Seq; molecule type: RNA; medium: in vitro; concentration: not given; reference: input RNA pool; direction: higher = stronger binding; quantity: bound/input enrichment
Target: RING finger protein unkempt homolog, zinc fingers 1-6, GST-SBP tag (UNK, Homo sapiens, UniProt Q9C0B0, residues 30-357)
UniProt Q9C0B0, sequence (30-357, looked up): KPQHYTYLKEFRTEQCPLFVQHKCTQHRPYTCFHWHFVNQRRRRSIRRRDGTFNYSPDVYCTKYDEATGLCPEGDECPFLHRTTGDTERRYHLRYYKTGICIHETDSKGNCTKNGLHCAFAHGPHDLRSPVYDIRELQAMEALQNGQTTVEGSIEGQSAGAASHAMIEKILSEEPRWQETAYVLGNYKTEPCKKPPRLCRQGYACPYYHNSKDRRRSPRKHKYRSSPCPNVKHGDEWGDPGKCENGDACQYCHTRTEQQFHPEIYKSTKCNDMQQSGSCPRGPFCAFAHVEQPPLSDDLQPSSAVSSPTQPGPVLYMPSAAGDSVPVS
Setting: RNA with constant flanks, human-mouse chimeric sites, ends assumed
Sequence = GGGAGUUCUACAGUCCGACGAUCCACGUGUCUGCAGUACUUGAUGUGGACUACUCUCCCACUGGGAAGGAGUUUGUGUCUGCCAGCUUUGAUAAGUCUAUUAGAAUCUUUCCUGUGGACAAAAGUCGAAGCAGGGAAGUGUAUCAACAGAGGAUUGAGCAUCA; result = 0.193 ratio
Sequence = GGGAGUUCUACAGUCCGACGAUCGCUCUUGGGAAUGUAAUCAGCGCCUUGGGGGACAAGAGCAAGAGAGCCACACAUGUCCCUUACAGAGACUCUAAGCUGACAAGACUCCUACAGGAUUCCCUUGGGGGUAACAGCCAAACCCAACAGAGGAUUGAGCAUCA; result = 0.126 ratio
Sequence = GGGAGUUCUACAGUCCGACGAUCUAUAAUAAUCAUGAAAUUCGUUCCGGGAAGCACAUUGGUGUCUGCAUCUCAGUUGCCAACAAUAGGCUUUUUGUGGGCUCGAUUCCUAAGAGUAAAACCAAGGAACAGAUUCUUGAGGAACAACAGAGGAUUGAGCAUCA; result = 1.17 ratio
Sequence = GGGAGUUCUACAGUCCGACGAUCUUACCCGAGAACGAGGAUGAAUUGGAGAGCACCAACAGACGCUAUACCAAGAGGGACUGCAGCACUUUCCUCAGAACUAGUGAGACGGGCAUCGUGGACCAGGUCAUGGUCACUCUCAACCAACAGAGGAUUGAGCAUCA; result = 0.246 ratio
Sequence = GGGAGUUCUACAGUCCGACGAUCGAGUCGAGCAAACUUGAAACAAUUCGUUAUCUUGCAGCCUCAGUGUUUUUACUUGCCGCGAUAGCAUUGGGGUUUUAUAGGUUCUGGGGAAGUAGUAGACGAUGAUGCUGCCGCUGCUGCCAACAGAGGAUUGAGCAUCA; result = 0.846 ratio
Sequence = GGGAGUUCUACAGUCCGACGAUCAAAGAGUGGAUAGAAUGUGCACACGGGAUCGGUGGGACCCGGGCGAAAAAGGAGUGCAAGAUAGAGUUCGAUGACUUCGUAGAGUGUUUGCUUCGGUACAAAACGAUGAGGCGAAUGCAUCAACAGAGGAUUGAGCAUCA; result = 0.359 ratio
Sequence = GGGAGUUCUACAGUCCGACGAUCGCAAAGGAUGAUGAGGCAGCUGCAGUUGCCCUUUCCUCUCUCGUUCAUGCUUUGGAUGAGUUAAACAUGGUCGCCAUCGUCCGAUAUGCUUAUGACAAAAGAUCUAAUCCUCAAGUCGGUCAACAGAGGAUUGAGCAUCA; result = 0.212 ratio
Sequence = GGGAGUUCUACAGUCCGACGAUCUUUGUUUUUGUAACUUAUGUAAAAGGUUCCCCCCCCCUACUGUCAAAAAAUAUGCAUGUAUAGUAAUUAGGACUUCAUUCCUCCAUGUUUUCUUCCCUUAUCUUACUGUCAUUGUCCUUACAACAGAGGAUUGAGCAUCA; result = 2.65 ratio
Sequence = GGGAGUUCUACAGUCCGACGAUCUCUGGUCAUACUCGUGCAUAUGGUGUGUGCUUUGUGGACACUUCACUGGGCAAGUUUUUCAUCGGCCAGUUUUCGGAUGACCGCCACUGUUCCAGAUUUAGGACGCUAGUGGCUCACUAUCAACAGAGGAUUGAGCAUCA; result = 0.199 ratio
Sequence = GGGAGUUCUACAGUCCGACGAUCGCACUUGGGAAUGUAAUCAGCGCCUUGGGGGACAAGAGCAAGAGAGCCACCCAUGUCCCUUACAGAGAUUCCAAGCUGACAAGACUCUUGCAGGAUUCCCUUGGGGGUAACAGCCAAACCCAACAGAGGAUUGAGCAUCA; result = 0.135 ratio
Sequence = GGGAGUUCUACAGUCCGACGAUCGAUCCACAGUGGUCUGAGGAGCAACUCAUUGCUGCAAAAUUCUGUUUUGCUGGCCUUGUUAUAGGGCAGACUGAAGUGGACAUCAUGAGUCAUGCUACACAGGCUAUUUUUGAAAUUCUGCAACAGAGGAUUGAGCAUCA; result = 0.153 ratio

Mixed results
Molecule = PhoQ, residues 284 288 289 292 302 303 TNSAEL; target = PhoP, residues 12 14 15 18 19 SEGLL (Escherichia coli, UniProt P23836); assay = Sort-seq, measured: YFP reporter; system = E. coli; conditions = PhoQ-PhoP variant library, added: 10 µM Mg2+; scale = reference: high Mg2+ state, higher = stronger signaling; quantity = fold induction; result = 11.3

Some of these lines once more (series 1):
Sequence = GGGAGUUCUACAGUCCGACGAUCUGGCCCUGGUGGCCUGCGGGGAGGAAGAGGUGGCCUCAUGGAUCGUGGUGGUCCCGGUGGAAUGUUCAGAGGUGGCCGUGGUGGAGACAGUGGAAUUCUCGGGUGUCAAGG; result = 0.0772
Sequence = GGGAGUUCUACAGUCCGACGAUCUUACUAGAAAAGGCAGAAGCCCGUGAACGUGAAAGAGAAAAAGAAGAGGCUCGGAAGAUGAAACGAAAAGAAUCUGCAUUUAAGAGUAUGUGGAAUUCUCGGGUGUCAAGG; result = -1.47
Sequence = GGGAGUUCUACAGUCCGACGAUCUCAAGUCCUGUGCUACACAUCGUAUGUACCGAAUCGGGGAGGGGUGGGGUGGGGAAAGUAUUAUGUUACGCCGUUCGGAUCUGCACUUCCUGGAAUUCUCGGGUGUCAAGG; result = 1.48
Sequence = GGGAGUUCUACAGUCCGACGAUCAGUCCUGUGCUACACAUCGUAUGUACCGAAUCGGGAAAAGGGGAAAAGGAAAAGGGGAAAGUAUUAUGUUACGCCGUUCGGAUCUGCACUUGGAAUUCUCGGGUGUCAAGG; result = 0.19
Sequence = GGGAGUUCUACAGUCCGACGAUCUGGCCCUGGUGGCAUGCGGGGAGGAAGAGGUGGCCUCAUGGAUCGUGGUGGUCCAGGUGGAAUGUUCAGAGGUGGCCGUGGUGGAGACAGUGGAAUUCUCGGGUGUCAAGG; result = 0.0866
